Measurements collected from several papers.
Compare with care: the assays were run in different laboratories. Values joined by “and” are separate records of one study, mostly repeats; a detail may differ. ± gives the spread as reported.
ACHE: Acetylcholinesterase (ACHE, Homo sapiens, UniProt P22303)
Chain of UniProt P22303 (whole entry, looked up): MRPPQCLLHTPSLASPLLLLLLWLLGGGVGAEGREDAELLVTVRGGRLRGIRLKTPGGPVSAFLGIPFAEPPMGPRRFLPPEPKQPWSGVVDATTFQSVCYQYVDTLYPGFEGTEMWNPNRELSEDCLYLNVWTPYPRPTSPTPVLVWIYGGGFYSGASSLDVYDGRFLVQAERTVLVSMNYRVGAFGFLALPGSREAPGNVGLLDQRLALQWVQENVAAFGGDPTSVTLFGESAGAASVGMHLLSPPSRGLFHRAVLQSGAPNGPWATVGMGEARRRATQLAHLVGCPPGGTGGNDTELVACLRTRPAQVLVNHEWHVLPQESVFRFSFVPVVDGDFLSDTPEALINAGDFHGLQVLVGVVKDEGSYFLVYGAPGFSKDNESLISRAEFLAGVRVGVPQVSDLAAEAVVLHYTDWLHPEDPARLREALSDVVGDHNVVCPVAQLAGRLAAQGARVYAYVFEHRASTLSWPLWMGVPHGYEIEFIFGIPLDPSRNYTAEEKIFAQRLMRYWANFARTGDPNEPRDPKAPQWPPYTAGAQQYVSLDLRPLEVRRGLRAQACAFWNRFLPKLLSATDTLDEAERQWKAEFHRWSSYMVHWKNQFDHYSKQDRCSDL
Chain of UniProt Q01959 (whole entry, unmodified, looked up): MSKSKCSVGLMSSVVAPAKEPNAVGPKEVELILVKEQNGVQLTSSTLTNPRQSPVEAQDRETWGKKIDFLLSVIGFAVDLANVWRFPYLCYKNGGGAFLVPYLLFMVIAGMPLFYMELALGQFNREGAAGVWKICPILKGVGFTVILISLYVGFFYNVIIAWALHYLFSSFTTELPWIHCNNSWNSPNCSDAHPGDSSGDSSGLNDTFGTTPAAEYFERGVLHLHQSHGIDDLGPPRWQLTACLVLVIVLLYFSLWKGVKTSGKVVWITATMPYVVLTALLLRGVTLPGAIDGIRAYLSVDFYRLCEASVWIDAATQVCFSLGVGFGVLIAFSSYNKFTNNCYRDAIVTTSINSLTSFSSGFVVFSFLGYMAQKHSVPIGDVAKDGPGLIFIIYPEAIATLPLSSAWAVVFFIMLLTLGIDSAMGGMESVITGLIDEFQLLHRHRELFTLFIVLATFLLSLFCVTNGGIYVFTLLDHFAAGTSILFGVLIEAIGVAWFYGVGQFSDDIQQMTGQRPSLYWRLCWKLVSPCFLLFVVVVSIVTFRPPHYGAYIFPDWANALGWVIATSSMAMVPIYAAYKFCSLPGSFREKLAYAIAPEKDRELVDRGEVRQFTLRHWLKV
Chain of UniProt P40337 (whole entry, unmodified, looked up): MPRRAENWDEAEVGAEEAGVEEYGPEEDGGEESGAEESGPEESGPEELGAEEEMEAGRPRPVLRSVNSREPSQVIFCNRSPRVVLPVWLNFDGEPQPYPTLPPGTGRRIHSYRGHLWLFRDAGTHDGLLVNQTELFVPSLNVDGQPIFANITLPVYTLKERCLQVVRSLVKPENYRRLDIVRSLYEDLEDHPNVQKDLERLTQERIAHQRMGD
Chain of UniProt Q16288 (whole entry, looked up): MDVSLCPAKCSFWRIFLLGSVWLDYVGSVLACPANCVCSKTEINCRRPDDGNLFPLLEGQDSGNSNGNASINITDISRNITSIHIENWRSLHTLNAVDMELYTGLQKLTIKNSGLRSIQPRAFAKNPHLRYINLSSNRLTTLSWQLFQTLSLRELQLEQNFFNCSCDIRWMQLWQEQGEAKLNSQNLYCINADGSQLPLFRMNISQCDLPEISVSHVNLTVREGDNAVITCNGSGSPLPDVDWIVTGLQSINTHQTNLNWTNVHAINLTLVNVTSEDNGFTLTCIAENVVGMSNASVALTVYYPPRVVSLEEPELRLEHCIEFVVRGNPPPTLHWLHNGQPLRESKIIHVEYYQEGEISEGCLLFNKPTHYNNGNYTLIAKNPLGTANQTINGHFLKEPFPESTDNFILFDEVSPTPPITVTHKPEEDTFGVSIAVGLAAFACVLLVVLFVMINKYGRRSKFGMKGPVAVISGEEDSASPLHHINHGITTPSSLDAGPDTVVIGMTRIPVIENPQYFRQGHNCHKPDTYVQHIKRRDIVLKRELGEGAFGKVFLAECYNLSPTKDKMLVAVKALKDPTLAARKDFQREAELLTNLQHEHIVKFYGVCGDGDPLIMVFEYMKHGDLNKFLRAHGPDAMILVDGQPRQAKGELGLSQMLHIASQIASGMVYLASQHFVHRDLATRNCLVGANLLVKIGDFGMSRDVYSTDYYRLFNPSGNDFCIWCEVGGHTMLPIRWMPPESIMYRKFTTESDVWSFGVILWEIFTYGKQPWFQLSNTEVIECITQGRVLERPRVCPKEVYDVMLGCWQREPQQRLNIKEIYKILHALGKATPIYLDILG
Chain of UniProt Q9NUJ1 (whole entry, looked up): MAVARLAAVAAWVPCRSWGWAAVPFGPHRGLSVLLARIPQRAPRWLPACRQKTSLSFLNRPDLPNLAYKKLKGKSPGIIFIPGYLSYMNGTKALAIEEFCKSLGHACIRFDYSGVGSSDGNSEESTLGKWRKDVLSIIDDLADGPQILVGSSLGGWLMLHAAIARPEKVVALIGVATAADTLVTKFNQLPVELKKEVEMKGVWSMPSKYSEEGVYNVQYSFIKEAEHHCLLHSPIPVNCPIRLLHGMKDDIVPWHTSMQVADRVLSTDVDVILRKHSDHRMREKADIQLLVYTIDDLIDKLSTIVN
Chain of UniProt Q92993 (whole entry, looked up): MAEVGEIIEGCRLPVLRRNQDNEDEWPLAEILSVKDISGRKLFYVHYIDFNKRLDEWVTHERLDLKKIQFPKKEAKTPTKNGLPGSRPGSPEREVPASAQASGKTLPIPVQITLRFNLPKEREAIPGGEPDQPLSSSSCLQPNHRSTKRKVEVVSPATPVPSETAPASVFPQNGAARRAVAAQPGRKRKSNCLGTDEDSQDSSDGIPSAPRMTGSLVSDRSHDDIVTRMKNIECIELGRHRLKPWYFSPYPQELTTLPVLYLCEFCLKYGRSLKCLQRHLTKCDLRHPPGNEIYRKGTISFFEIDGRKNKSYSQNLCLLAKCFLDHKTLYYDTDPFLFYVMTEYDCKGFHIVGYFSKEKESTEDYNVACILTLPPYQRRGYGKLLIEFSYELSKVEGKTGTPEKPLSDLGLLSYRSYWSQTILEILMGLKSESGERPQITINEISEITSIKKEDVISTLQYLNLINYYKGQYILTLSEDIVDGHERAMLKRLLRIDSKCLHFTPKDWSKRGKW
Chain of UniProt P36544 (whole entry, looked up): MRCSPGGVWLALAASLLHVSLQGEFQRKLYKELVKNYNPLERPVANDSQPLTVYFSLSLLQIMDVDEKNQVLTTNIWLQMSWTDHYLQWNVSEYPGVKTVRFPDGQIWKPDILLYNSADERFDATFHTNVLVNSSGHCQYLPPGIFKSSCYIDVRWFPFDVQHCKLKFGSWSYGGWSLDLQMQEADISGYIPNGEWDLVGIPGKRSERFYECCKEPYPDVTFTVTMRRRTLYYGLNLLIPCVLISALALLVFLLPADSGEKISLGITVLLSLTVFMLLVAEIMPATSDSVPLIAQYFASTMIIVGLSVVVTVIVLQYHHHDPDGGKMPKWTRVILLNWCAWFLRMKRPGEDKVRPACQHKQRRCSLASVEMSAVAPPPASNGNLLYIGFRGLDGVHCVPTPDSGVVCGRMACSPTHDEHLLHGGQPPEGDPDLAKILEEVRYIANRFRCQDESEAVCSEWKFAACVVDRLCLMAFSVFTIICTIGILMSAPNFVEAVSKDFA
Chain of UniProt P28223 (whole entry, looked up): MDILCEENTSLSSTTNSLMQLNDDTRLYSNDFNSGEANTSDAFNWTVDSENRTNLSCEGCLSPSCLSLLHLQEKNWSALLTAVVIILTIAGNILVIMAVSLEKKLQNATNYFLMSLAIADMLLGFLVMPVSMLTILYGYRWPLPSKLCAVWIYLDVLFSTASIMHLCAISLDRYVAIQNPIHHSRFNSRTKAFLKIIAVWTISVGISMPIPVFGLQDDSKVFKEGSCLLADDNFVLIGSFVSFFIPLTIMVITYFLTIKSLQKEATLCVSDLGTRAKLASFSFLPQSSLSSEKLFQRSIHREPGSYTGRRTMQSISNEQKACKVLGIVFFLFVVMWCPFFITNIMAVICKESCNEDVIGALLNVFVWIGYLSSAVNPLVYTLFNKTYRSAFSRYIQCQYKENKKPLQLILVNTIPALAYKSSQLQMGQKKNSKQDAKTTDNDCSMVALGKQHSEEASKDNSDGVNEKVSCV
Chain of UniProt Q8NFJ6 (whole entry, looked up): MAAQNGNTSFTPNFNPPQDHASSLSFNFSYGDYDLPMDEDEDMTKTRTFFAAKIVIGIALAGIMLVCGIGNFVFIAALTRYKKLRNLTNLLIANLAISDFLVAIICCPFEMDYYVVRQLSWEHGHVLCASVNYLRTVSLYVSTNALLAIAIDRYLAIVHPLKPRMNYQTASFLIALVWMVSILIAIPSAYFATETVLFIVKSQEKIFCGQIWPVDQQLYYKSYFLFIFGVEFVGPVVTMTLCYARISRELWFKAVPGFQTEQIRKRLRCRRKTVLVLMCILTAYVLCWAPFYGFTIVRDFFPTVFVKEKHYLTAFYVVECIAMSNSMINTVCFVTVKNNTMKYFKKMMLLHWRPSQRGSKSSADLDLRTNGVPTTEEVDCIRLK
Chain of UniProt O43293 (whole entry, looked up): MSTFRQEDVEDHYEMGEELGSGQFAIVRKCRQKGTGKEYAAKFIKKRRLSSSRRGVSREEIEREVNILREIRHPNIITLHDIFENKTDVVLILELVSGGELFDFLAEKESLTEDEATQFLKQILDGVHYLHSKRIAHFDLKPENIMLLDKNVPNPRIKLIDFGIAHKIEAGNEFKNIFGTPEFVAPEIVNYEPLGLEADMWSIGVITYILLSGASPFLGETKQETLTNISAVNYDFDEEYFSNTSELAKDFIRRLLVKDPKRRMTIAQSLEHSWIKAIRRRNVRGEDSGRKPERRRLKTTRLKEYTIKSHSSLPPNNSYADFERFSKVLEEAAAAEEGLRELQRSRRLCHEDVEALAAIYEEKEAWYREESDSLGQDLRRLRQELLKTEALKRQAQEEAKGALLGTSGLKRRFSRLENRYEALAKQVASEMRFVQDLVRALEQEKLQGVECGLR

`CC(C)(C)C1CCN(C(=O)n2ncc(C(O)(c3ccccc3)c3ccccc3)n2)CC1` — result for IC50: “inactive” (ACHE; enzyme activity, inhibitor).
The Emax of `COc1cc(CCNC(C)c2ccccc2O)c(OC)cc1C#N` (centres unmarked) is reported as 91% (HTR2A (Homo sapiens, UniProt P28223); receptor activation, agonist).
For `[2H]c1c([2H])c([C@]2([2H])CCCN2C(=O)C(C)(C)Oc2ccc3cn[nH]c3c2)c([2H])c([2H])c1C([2H])([2H])[2H]`, the remaining binding was 77% (DAPK3 (Homo sapiens, UniProt O43293); KINOMEscan; 1 µM; reference: DMSO control).
The inhibition of `CN1CCN(c2cc(-c3ccncc3)c(-c3ccc4ccccc4c3)nn2)CC1` is reported as -9.4% (CCR6 (Homo sapiens, UniProt P51684); antagonist, FLIPR; 10 µM).
`O[C@@](Cc1ncc(CC2(C(F)(F)F)CC2)[nH]1)(c1ccc(-n2cccn2)cc1)C(F)(F)F`: IC50 “inactive” (ACHE; enzyme activity, inhibitor).
`COc1ccc(N2CCN(C(CNC(=O)Oc3ccccc3)c3cccnc3)CC2)cc1` (centres unmarked) has an inhibition of -3.3% (Trypanosoma cruzi; reporter translation, Renilla luciferase mRNA translation; cell-free extract; 40 µM; reference: DMSO).
`c1ccc2cc([C@]34CNC[C@H]3C4)ccc2c1` has a dopamine uptake of 18.2% and 19.5% and 18.7% (SLC6A3 (Homo sapiens, UniProt Q01959, V152A); inhibitor, [3H]dopamine uptake; 1 µM, V152A mutant; reference: no inhibitor).
The inhibition of `CCCC1COC(Cn2cncn2)(c2ccc(Cl)cc2Cl)O1` (centres unmarked) is reported as 2.4% (Trypanosoma cruzi; reporter translation, Renilla luciferase mRNA translation; cell-free extract; 40 µM; reference: DMSO).
`CCOc1ccccc1C(=O)Nc1ccc(Cl)c(C(F)(F)F)c1`: “SPR binding response” 0.126 RU (KAT5 (Homo sapiens, UniProt Q92993); SPR; 0.023 µM; higher = more binding).
`COc1ccc(N2C(=O)N(c3c(C)cccc3Cl)Cc3cnc(Nc4ccc(C5CCN(C)CC5)cc4OC)nc32)nc1` has an inhibition of -2% (NTRK3 (Homo sapiens, UniProt Q16288); kinase activity, inhibitor; 0.5 µM, kinase TRKC).
`CC(=O)N[C@H](C(=O)N1C[C@H](O)C[C@H]1C(=O)NCc1ccc(-c2scnc2C)cc1)C(C)(C)SCCCCCCNC(=O)C[C@@H]1N=C(c2ccc(Cl)cc2)c2c(sc(C)c2C)-n2c(C)nnc21` has a binding stoichiometry of 0.9 ± 0.2 (BRD2/VHL, BD1; with VCB (Homo sapiens, UniProt P25440+P40337, K107A/Q101K/V106E); ITC; concentration not given, 25 °C, ternary complex, with: BRD2 BD1).
Under IC50, `C[C@@H](N[C@H]1CCCC[C@@H]1NC(=O)c1ccc(Cl)cc1)c1cccc2ccccc12.Cl` is recorded as “inactive” (ACHE; enzyme activity, inhibitor).
Under “log2 fold change”, `Oc1ccc2c3c1O[C@H]1[C@@H](O)CC[C@@]4(O)[C@@H](C2)N(CC2CCC2)CC[C@]314` is recorded as -0.372 (PROKR2 (Homo sapiens, UniProt Q8NFJ6); β-arrestin recruitment, TANGO luminescence, item: PK2; concentration not given; reference: basal luminescence).
`CCOC(=O)C(=O)c1csc(NC=O)n1`: IC50 “inactive” (ACHE; enzyme activity, inhibitor).
For `CNC1(c2ccccc2Cl)CCCCC1=O` (racemic), the inhibition was -1% (CHRNA7 (Homo sapiens, UniProt P36544); radioligand binding, antagonist, radioligand displacement; 30 µM).
For `C[C@H]1CN(c2n[nH]c3nc(N[C@H]4CC[C@H](NS(=O)(=O)CCC(F)(F)F)CC4)ncc23)CCO1`, the Hill coefficient was 1 (Mitotic checkpoint protein BUB3 (Homo sapiens, UniProt O43684); binding, Kinobeads competition, item: BUB3).
The median ratio of `O=C(c1ccc(Cl)cc1)N1CCN2C(=O)N(OC(=O)N3CCOc4ccccc43)C(=O)C2C1` (centres unmarked) is reported as 1.05 (Palmitoyl-protein thioesterase ABHD10, mitochondrial (Homo sapiens, UniProt Q9NUJ1); enzyme activity, inhibitor, MS-based ABPP; SW-620 in situ; 10 µM, 2 h, 37 °C; reference: compound over DMSO, lower = stronger inhibition).
`CC[C@H](C)[C@H](NC(=O)CNC(=O)[C@@H](N)CCCCN)C(=O)N[C@@H](CC(C)C)C(=O)N[C@@H](CCCCN)C(=O)N[C@@H](CCCNC(=N)N)C(=O)N[C@@H](CCC(=O)O)C(=O)N[C@@H](CCCCN)C(=O)N[C@@H](CCCNC(=N)N)C(=O)N[C@@H](CC(C)C)C(=O)N[C@@H](CCCNC(=N)N)C(=O)N[C@@H](CCCNC(=N)N)C(=O)N[C@@H](CCCCN)C(=O)N[C@@H](CC(N)=O)C(=O)N[C@H](C(=O)N[C@@H](Cc1c[nH]cn1)C(=O)N[C@@H](Cc1c[nH]c2ccccc12)C(=O)N1CCC[C@H]1C(=O)N[C@@H](CCC(=O)O)C(=O)N[C@@H](CCC(=O)O)C(=O)NCC(=O)N[C@@H](CCCCN)C(=O)N[C@@H](CC(C)C)C(=O)N[C@@H](CCCNC(=N)N)C(=O)N[C@@H](CCC(=O)O)C(=O)N[C@@H](Cc1ccc(O)cc1)C(=O)N[C@@H](Cc1ccccc1)C(=O)N[C@@H](Cc1ccc(O)cc1)C(=O)N[C@@H](Cc1ccccc1)C(=O)N[C@@H](CCC(=O)O)C(=O)N[C@@H](CC(C)C)C(=O)N[C@@H](CC(=O)O)C(=O)N[C@@H](CCC(=O)O)C(=O)N[C@@H](C)C(=O)N[C@@H](CCC(=O)O)C(=O)N[C@@H](CCCNC(=N)N)C(=O)N[C@H](C(=O)N[C@@H](CC(N)=O)C(=O)N[C@H](C(=O)O)C(C)C)C(C)C)C(C)C` — result for “log2 fold change”: -0.1 (HeLa and HEK-293T cells; phosphatase bead binding, competitive inhibitor, PIB pulldown iBAQ LC-MS/MS, item: PPP4R1; concentration not given; reference: untreated control).
Under IC50, `CC1(N2CCC(n3c([C@@H]4CCCNC4)nc4ccccc43)CC2)CCCCCCC1` is recorded as “inactive” (ACHE; enzyme activity, inhibitor).
`O=S(=O)([O-])C(F)(F)C(F)(F)C(F)(F)C(F)(F)C(F)(F)C(F)(F)C(F)(F)C(F)(F)F.[K+]` — result for mRNA level: “increased” (RT-qPCR, item: Pparg; mouse, ethanol-fed, liver; dose not given; reference: efavirenz).

Some of these lines once more:
`COc1ccc(N2CCN(C(CNC(=O)Oc3ccccc3)c3cccnc3)CC2)cc1` (centres unmarked) has an inhibition of -3.3% (Trypanosoma cruzi; reporter translation, Renilla luciferase mRNA translation; cell-free extract; 40 µM; reference: DMSO).
